Assay results gathered from unrelated publications.
Protocols differ between the studies behind these lines. “And” joins repeats or separate records; there may be more than shown. ± gives the spread as reported.

`O=C1NC(=O)/C(=C/c2ccc3ncnc(N4CCC(F)(F)CC4)c3n2)S1` gave a body weight of 14.7 g and 15.5 g and 13.9 g and 20.9 g (NSG mice; dose not given, day 5).
`COc1cc(N2CCC(N3CCN(C)CC3)CC2)ccc1Nc1ncc(Cl)c(Nc2ccccc2P(C)(C)=O)n1` gave a body weight of 20.1 g and 23.3 g and 23.5 g and 22.1 g and 24.1 g (nude mice, NCI-H3122 xenograft; intraperitoneal, 10 mg/kg every other day, day 1).
`Cc1cnc(Nc2ccc(OCCN3CCCC3)cc2)nc1Nc1cccc(S(=O)(=O)NC(C)(C)C)c1` gave a body weight of 19.2 g and 19 g and 18.4 g and 17.9 g and 18.7 g (BALB/c mice, rhEPO-induced polycythemia; 120 mg/kg, day 2).
For `O=C(Nc1cccc2cccnc12)c1cnccn1`, body weight read “no effect” (NOD/SCID mice MIA PaCa-2 xenograft; intraperitoneal, 10 to 40 mg/kg).
`O=C1NC(=O)/C(=C/c2ccc3ncnc(N4CCCCC4)c3n2)S1` has a body weight of 19.4 g and 14.4 g and 21 g and 16.7 g (NSG mice; dose not given, day 4).
For `CCc1cnc(NC(=O)c2cc(S(=O)(=O)N3CCOCC3)ccc2N(C)C2CCCC2)s1`, body weight read “not toxic” (mice bearing HCC827-GR xenografts; dose not given).
With `C1=C/COCc2cc(ccc2OCCN2CCCC2)Nc2nccc(n2)-c2cccc(c2)COC/1` the body weight was 20.3 g and 19.2 g and 18.7 g and 18 g and 18.8 g and 17.9 g (BALB/c mice, rhEPO-induced polycythemia; 120 mg/kg, day 5).
With `COc1ccc(CNc2nc(-c3ccc(C(=O)O)cc3)nc3sc4ccccc4c23)cc1Cl` the body weight was 18 g and 21.3 g and 20 g and 19.4 g (NSG mice; dose not given, day 4).
For `COc1cccc2c1C(=O)c1c(O)c3c(c(O)c1C2=O)C[C@@](O)(C(=O)CO)C[C@@H]3O[C@H]1C[C@H](N)[C@H](O)[C@H](C)O1`, the body weight was 19 ± 0.13 g (BALB/c mice, 4T1 tumour model; 2 mg/kg, day 11).

For quick reference, copied from above:
`Cc1cnc(Nc2ccc(OCCN3CCCC3)cc2)nc1Nc1cccc(S(=O)(=O)NC(C)(C)C)c1` gave a body weight of 19.2 g and 19 g and 18.4 g and 17.9 g and 18.7 g (BALB/c mice, rhEPO-induced polycythemia; 120 mg/kg, day 2).
